Measurements of several laboratories.
Parts stem from different laboratories: compare values within a part only.

Sample 1
Target: Histone acetyltransferase KAT6A, winged helix 2, GST fusion (KAT6A, Homo sapiens, UniProt Q92794, residues 85-181)
Technique: protein binding microarray
Form: double-stranded DNA, one strand shown
Matrix: in vitro
Tested at: not given
Setting: 8-mer, flanks averaged, mean of 2 arrays, mostly near background
Baseline: not given
Reading: higher = stronger binding
Target sequence (chain): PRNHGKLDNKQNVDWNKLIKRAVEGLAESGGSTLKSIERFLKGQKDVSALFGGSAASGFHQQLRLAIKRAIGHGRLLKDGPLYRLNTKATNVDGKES
`CAAATCCA` has an E-score of 0.04.
`AAAATATT` gave an E-score of -0.0105.
`ACGCTAAA` gave an E-score of 0.00297.
`ACGTGAAT` has an E-score of -0.117.
The E-score of `AATCACGA` is reported as -0.148.
For `TAACCCCA`, the E-score was -0.15.
With `ACAAGCCA` the E-score was 0.105.
With `ATGCTGCG` the E-score was 0.0123.
`CTGCTTGC` gave an E-score of 0.0438.
For `TCGCGGAA`, the E-score was 0.0662.
`CGAAGAAC` has an E-score of 0.0955.
The E-score of `AGATCATG` is reported as -0.0285.
For `ACGTGCCT`, the E-score was 0.00337.
`AAGAGTGG` gave an E-score of -0.14.
For `AATCGCCA`, the E-score was 0.0349.
The E-score of `ACCACAGA` is reported as -0.0697.
For `GCCAAAAC`, the E-score was -0.0519.
`CGAGGTCC` gave an E-score of 0.186.
`CGCGCGAA` has an E-score of 0.0828.
With `CGGAACTA` the E-score was 0.166.
The E-score of `CAACATGA` is reported as 0.039.

Sample 2
Target: Sal-like protein 4, full length isoform A (SALL4, Homo sapiens, UniProt Q9UJQ4, residues 1-1053)
Sequence of UniProt Q9UJQ4 (whole entry, looked up): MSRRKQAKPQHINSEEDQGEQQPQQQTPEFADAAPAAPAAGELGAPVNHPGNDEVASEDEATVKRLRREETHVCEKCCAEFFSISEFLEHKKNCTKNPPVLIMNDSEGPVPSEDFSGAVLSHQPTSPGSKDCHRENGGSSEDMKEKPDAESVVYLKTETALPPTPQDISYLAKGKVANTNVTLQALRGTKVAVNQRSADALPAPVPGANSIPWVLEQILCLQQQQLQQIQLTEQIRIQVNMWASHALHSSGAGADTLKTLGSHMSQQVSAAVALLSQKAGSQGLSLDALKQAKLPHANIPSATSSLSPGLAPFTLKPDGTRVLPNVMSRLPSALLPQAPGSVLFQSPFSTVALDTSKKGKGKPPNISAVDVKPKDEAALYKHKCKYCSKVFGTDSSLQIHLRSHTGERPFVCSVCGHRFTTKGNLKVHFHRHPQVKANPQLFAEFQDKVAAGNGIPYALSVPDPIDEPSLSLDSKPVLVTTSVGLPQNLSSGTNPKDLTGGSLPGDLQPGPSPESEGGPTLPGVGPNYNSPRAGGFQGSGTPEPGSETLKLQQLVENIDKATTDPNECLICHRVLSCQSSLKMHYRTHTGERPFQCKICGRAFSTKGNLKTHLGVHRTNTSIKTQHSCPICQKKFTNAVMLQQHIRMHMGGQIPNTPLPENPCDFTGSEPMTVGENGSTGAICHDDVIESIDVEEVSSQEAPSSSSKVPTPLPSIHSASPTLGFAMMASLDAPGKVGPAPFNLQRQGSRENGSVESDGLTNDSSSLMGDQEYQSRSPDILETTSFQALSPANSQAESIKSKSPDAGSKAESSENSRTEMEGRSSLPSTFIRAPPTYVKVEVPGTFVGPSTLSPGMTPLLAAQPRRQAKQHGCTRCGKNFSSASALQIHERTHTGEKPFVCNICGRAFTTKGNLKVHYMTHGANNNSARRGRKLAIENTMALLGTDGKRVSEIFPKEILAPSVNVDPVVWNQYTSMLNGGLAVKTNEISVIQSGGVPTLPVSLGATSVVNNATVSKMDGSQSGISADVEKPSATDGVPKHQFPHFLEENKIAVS
Technique: universal PBM
Form: double-stranded DNA, one strand shown
Matrix: in vitro
Tested at: 600 nM
Setting: 8-mer, flanks averaged, mean of replicates
Reading: higher = stronger binding
For `CGAACCAC`, the E-score was -0.182.
`CTACGAAC` has an E-score of 0.035.
`ATTACCTC` has an E-score of 0.189.
`CGGAAGTC` has an E-score of -0.106.
With `CCTTAATC` the E-score was 0.0628.
The E-score of `ACGCACGC` is reported as -0.125.
For `ACTTTCAG`, the E-score was 0.0361.
The E-score of `CTTACCTC` is reported as -0.129.
With `GCTACCAC` the E-score was -0.151.
`CCGCCTTA` gave an E-score of -0.105.
The E-score of `AGACAGCA` is reported as -0.00449.
For `TGCATCAA`, the E-score was 0.168.
For `AACCTCGC`, the E-score was -0.139.
`GACCGACC` has an E-score of -0.283.
With `AAAACTTG` the E-score was 0.257.
With `ATGGACCA` the E-score was 0.0214.
`GGATGACA` gave an E-score of 0.0167.
With `GATCATAC` the E-score was 0.0548.
`CCCCCCGA` gave an E-score of -0.272.

Sample 3
Target: Interferon regulatory factor 3, full length, phosphomimetic (IRF3, Homo sapiens, UniProt Q14653, residues 1-427, S386D/S396D/S398D/S402D/T404D/S405D)
Technique: protein-binding microarray
Form: double-stranded DNA, one strand shown
Matrix: in vitro
Tested at: 2540 nM top
Setting: 60-bp whole probe
Added: salmon DNA 0.4 mg/ml
Baseline: random background probes
Reading: higher = stronger binding
Constant ends, left off below: GCCTAGCAC … GTCTTGATTCGCTTGACGCTGCTG
Target sequence (chain): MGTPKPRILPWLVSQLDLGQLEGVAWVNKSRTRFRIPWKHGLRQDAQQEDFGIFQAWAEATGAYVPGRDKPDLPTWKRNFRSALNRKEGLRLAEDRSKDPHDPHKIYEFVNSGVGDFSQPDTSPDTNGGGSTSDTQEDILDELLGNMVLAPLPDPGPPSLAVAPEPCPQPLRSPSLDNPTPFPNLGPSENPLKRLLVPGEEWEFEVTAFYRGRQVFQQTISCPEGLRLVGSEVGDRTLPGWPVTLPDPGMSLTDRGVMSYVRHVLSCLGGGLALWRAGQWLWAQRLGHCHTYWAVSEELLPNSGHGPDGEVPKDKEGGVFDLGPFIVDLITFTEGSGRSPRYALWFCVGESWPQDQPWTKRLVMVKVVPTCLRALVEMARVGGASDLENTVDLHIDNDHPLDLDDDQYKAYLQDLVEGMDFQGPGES
For `CCAGTTTTGTGTGTGTGTTTGTGCTAG`, “fitted relative affinity” read 0.299 z-score.
For `CTGTGTACATCTCTCTTAAAGTGCTAG`, “fitted relative affinity” read 0.797 z-score.
Under “fitted relative affinity”, `CAAAGAAAAAGAAAAAAAAAGGTGCTA` is recorded as 0.069 z-score.
`TTAGAACTGGGGTATCGATGAGTGCTA`: “fitted relative affinity” -0.867 z-score.
For `GACGGTCTCAGTCTCGGGACGTGCTAG`, “fitted relative affinity” read 1.35 z-score.
`TTAGGTATTGGGTTTCGGTTAGTGCTA` — result for “fitted relative affinity”: 2.85 z-score.
`GACGGATTGGGACTGGGGACGTGCTAG` — result for “fitted relative affinity”: -0.394 z-score.
`TCATATCACTATTCTAGGACTGTGCTA`: “fitted relative affinity” 1.62 z-score.
Under “fitted relative affinity”, `GACGCTTCCAGTTTCGAGACGTGCTAG` is recorded as 3 z-score.
For `TTAGGACTGGACACTGGGTGAGTGCTA`, “fitted relative affinity” read -0.725 z-score.
For `TTTGCTCTGTGCATAGGCCTGTGCTAG`, “fitted relative affinity” read -0.255 z-score.
`GACGATCTCAGCTTCGAGACGTGCTAG`: “fitted relative affinity” 0.358 z-score.
`TAAGGTATCGACACTGGGTTAGTGCTA` — result for “fitted relative affinity”: 0.00284 z-score.
`CTAGGTTTCGACTATCGGTTAGTGCTA` — result for “fitted relative affinity”: 2.55 z-score.
For `CACGGTATCGGACTGGGGACGTGCTAG`, “fitted relative affinity” read 1.23 z-score.
Under “fitted relative affinity”, `TTAGGTCTCAGACTGGGTTAGTGCTAG` is recorded as -0.153 z-score.
Under “fitted relative affinity”, `TCAAGTTTGTAAATCTTACTGTGCTAG` is recorded as -0.284 z-score.

Sample 4
Target: Centromere-binding protein 1, full length, His-tagged (CBF1, Saccharomyces cerevisiae, UniProt P17106, residues 1-351)
Sequence of UniProt P17106 (whole entry, looked up): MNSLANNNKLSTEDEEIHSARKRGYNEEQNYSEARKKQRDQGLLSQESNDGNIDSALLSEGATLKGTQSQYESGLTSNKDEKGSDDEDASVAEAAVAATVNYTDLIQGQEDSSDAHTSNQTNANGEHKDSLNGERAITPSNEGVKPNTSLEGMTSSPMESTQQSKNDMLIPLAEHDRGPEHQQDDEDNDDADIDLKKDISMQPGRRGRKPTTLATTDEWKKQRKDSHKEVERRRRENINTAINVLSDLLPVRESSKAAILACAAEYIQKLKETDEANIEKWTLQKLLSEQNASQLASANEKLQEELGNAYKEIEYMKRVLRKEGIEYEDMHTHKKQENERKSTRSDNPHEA
Technique: competition protein-binding microarray
Form: double-stranded DNA, one strand shown
Matrix: in vitro
Tested at: 2 µM
Setting: whole 60-bp probe, lowest competitor level
Added: Pho4 competitor, 0.05 µM
Reading: higher = stronger binding
Constant ends, left off below: … GTCTTGATTCGCTTGACGCTGCTG
The fluorescence intensity of `GGCTTGCAACTCCGTCACATGAGGTATGGGGGACAT` is reported as 250 a.u.
With `TGGAAACCTGCCTGTCACATGATGTAAAATCTCCAT` the fluorescence intensity was 2230 a.u.
With `AAATTACTAAGTTGTAACGTGGGTGACGCCGTATGA` the fluorescence intensity was 79.1 a.u.
`TAACGTACAGGAAGTAACGATCAAACAAAATAAATT` gave a fluorescence intensity of 82 a.u.
The fluorescence intensity of `CGGGGTTAAGTTTGTCACTGTACTTGCTTGCAGCAG` is reported as 60.4 a.u.
The fluorescence intensity of `AAAGCGGTAATTTGGACCGTGGGTGCAGATATCTAT` is reported as 64.5 a.u.
With `GGTGCTGTTATTTGTCATGCCATTTGCTCTGGATTA` the fluorescence intensity was 83.8 a.u.
For `AAATTACTAAGTTGTCCGGTGGGTGACGCCGTATGA`, the fluorescence intensity was 60.7 a.u.
`AAAGCGGTAATTTGCAAGGTGGGTGCAGATATCTAT` gave a fluorescence intensity of 67.2 a.u.
For `CTAACGAAGGTTTGTCACCACACTTACAAGCCAAGT`, the fluorescence intensity was 89.7 a.u.
The fluorescence intensity of `AAGGCCACTGTTTATATCGTGCGATGGCTGGCAGGG` is reported as 62.3 a.u.
`GATGGTATACGCCGTCACGTCTTTTACAATGAAGTG` has a fluorescence intensity of 264 a.u.
The fluorescence intensity of `GTTATAAAAGAATGTCCCGTGGTGAAAATGGATGAG` is reported as 275 a.u.
`CTAAATGGGTAAAAACTCGTGTTTTAGGAAAAAAAA` gave a fluorescence intensity of 136 a.u.
`GCTTCGATGTTTCCTCACGTTGTGATGTTACTTCAG` has a fluorescence intensity of 127 a.u.
`TTTCCTCTCCTTCTCTGCGTGCTTTCAAATCTAATT` gave a fluorescence intensity of 63.6 a.u.
`CCTTTTCTTCTTGCGTACGTGCCGATCAATGCGTCG` gave a fluorescence intensity of 97.1 a.u.
`CTAACGAAGGTTTGGGAAGTGGGTGACAAGCCAAGT` has a fluorescence intensity of 67.4 a.u.
`GATGATGACAAATTCAGCGTGAGGACATCAACTCCC` has a fluorescence intensity of 74.3 a.u.
With `CCTTCCGCCAAGGAGCACATGCGGCCCACTAAAACT` the fluorescence intensity was 84.9 a.u.
`AGTTACCCAGCCGCCCTCGTGCTTTGTAGTGCCATC` has a fluorescence intensity of 91.1 a.u.
`CTAACGAAGGTTTGTCATGTGGGTGACAAGCCAAGT` gave a fluorescence intensity of 178 a.u.

Sample 5
Target: RNA binding protein fox-1 homolog 2, RRM domain, GST-SBP tag (RBFOX2, Homo sapiens, UniProt O43251-10, residues 100-194)
Technique: RNA Bind-n-Seq
Form: RNA
Matrix: in vitro
Tested at: 365 nM
Setting: natural RNA segment, single round, ends assumed
Baseline: no-protein control
Reading: higher = stronger binding
Constant ends, left off below: GGGAGUUCUACAGUCCGACGAUC … UGGAAUUCUCGGGUGCCAA
Construct (chain): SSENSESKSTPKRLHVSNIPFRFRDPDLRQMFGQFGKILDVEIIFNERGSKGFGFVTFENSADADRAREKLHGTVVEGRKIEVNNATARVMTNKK
Under “RBNS enrichment (R)”, `AAAACCAAGCAUUGUGUACAGGAGCUAGGGCAGCGCAGGAGGCCCUUUCAGUUGGAGAGGCAGGUUGCUUUAAUGUCACUCUGACCUGCGUUGUUUGACUAUUUUAUAAU` is recorded as 1.4.
For `CCAAGCAAGCCAGUGAGCAGCCCGGCCAGACCCUGCUGGACUGAGAGACCCAGCCGCUGACAGUCCCUGGGGCUUGCCUUCUUUGCCAAGCCAAUGGGAAACCAAAAGGA`, “RBNS enrichment (R)” read 0.433.
For `UGCACCUGUGGACAGUGGGUGGGGCACUACUCCCCACUCAGAGCACAAAUGCAACCCCUCCCCUACAAAUCCCAUCCUGAGCCAUUGCAGGGGUAGGGAAGCUCACCCCU`, “RBNS enrichment (R)” read 0.333.
Under “RBNS enrichment (R)”, `UUACUGGAAGCUUAAAAUUUGCUUCUCAGUUGGCCUUUAGAGCAAGAGUGGAAUAGCUGUUUUAUUCUUAGGUUGUAGAAUGCCUUGUAGUGCUUCAUAUACUUUGGGGA` is recorded as 0.489.
`GCUUUAUUUUUGUUUUAAUCUUUUGUUGCCAGUGAUGAUUUUCCUAUUCUGCAAAUAGUGUAUUUCCUGGAUUACACAUAGUAUGGUUUCCUGAAGUAUUCUGAUAAAUG`: “RBNS enrichment (R)” 0.524.
`AAAUUUAAAGUUUCUUUACUUCAAUUAACUUAAAGGACCAAUAAACCCAUAAAAGAUGCUUUCUUUAUCUGGAGUCAUGUCCUCAUUUGUACCUUUUUGUAAGGCAGAAA` — result for “RBNS enrichment (R)”: 0.372.
`CUGACUAACAAAUCGAAUGUAAAGUUGGGAAUGUUUGGUUCUGUGUAUGCAGACACAUGAGCUGUGGGGUAACAAUCAAAACGUAAUCUUUCAUAGAUAGCCAUUACAUU`: “RBNS enrichment (R)” 0.416.
For `CAGAACUGAAGAUGGAAUGGCCUGACCAGCUAUUAAGAACGUGGGGAGACGCAGAAAUUGUGGUAAAAUUCCUUAAUGUUUAAGGGAAAGUAACUUUAAGAGAUUUUUGG`, “RBNS enrichment (R)” read 0.533.
Under “RBNS enrichment (R)”, `AGGCGUGUUGCUGUGUAUCCCGGGCAUCCAUGGGUUCCAACUGCCACUGCCCCAGUCUUGGCCAGAGAUACCCCUCCUGCCUGACUGGAAGCUGCACAUCUGCCCACUGA` is recorded as 0.252.
For `UCUCUGAAUCACUCUUCAAUCUUGGGCCUCUAUUGCCUUACUUCAAAUAUUGUACCUUGUUUAGCCUACCUCACAGGGCUGUUGUGAGGAGUGUAGUGAAACGGACUCUC`, “RBNS enrichment (R)” read 0.279.
`AACUGUCUACACGUGCACAUAGGCAGACUUUCUCAUAGAAUGUUCUUGAAAGGUGAUUGGCAAAGUCAUGCAGGCCCGCCUUAAAGCGCUGAUUAGAACAGUCCAACACA`: “RBNS enrichment (R)” 1.15.
Under “RBNS enrichment (R)”, `UUUGCAAUGUUUAAUUAAGUGCCCAAAGAGCACAAACAUUUUUCAACAAAUAUCUUGUGUUGUCCUUUUGUCUUCUCUGUCUCAGACUUUUGUACAUCUGGCUUAUUUUA` is recorded as 0.343.

Excerpt of the above (sample 3):
Under “fitted relative affinity”, `CAAAGAAAAAGAAAAAAAAAGGTGCTA` is recorded as 0.069 z-score.
`TTAGAACTGGGGTATCGATGAGTGCTA`: “fitted relative affinity” -0.867 z-score.
For `GACGGTCTCAGTCTCGGGACGTGCTAG`, “fitted relative affinity” read 1.35 z-score.
`TTAGGTATTGGGTTTCGGTTAGTGCTA` — result for “fitted relative affinity”: 2.85 z-score.
`GACGGATTGGGACTGGGGACGTGCTAG` — result for “fitted relative affinity”: -0.394 z-score.
`TCATATCACTATTCTAGGACTGTGCTA`: “fitted relative affinity” 1.62 z-score.
Under “fitted relative affinity”, `GACGCTTCCAGTTTCGAGACGTGCTAG` is recorded as 3 z-score.
